Published values pooled from the literature.
Each line is one published result; not all experiments were run side by side. “And” joins repeats or separate records; there may be more than shown. Numbers after ± are the reported error.

`COc1ccccc1-c1n[nH]c2nc(NC3CCN(C(=O)Cc4ccc(F)cc4F)CC3)ncc12` gave a relative abundance of 1.18 (bead binding, competition bead pull-down, measured: LINJ.09.0820; Leishmania donovani extract; 10 µM; relative to: vehicle).
The reticulocytes of `O=C1NC2(CC2)COc2ncc(F)cc2[C@H]2COCCN2c2ccn3ncc1c3n2` is reported as 1.67 ± 0.86% (Sprague-Dawley rat, female, blood; oral, 2.5 mg/kg/day, end of recovery, 4-week repeated-dose toxicity; relative to: red blood cells).
With `CC(C)[C@H](NC(=O)[C@H](CCCNC(=N)N)NC(=O)[C@@H]1CCCN1C(=O)[C@@H](NC(=O)[C@H](C)NC(=O)[C@H](Cc1ccc(O)cc1)NC(=O)[C@H](CCC(N)=O)NC(=O)[C@H](CCCCN)NC(=O)[C@H](CCCNC(=N)N)NC(=O)[C@@H]1CCCN1C(=O)[C@H](CCC(=O)O)NC(=O)[C@@H](NC(=O)[C@H](C)N)[C@@H](C)O)[C@@H](C)O)C(=O)N[C@@H](Cc1ccccc1)C(=O)N[C@@H](Cc1c[nH]c2ccccc12)C(=O)N[C@H](C(=O)N[C@@H](CC(=O)O)C(=O)N[C@@H](C)C(=O)N1CCC[C@H]1C(=O)NCC(=O)NCCOCCOCCOCCOCCOCCOCCOCCOCCOCCOCCOCCOCCC(=O)N[C@@H](CS)C(N)=O)[C@@H](C)O` the selectivity ratio was 4.2 ± 1.7 (HCC461; phage binding; relative to: targeting over control phage).
With `CCCCCCCC(=O)N[C@@H](CCCNC(=N)N)C(=O)N[C@@H](Cc1c[nH]c2ccccc12)C(=O)N[C@@H](CCCCN)C(=O)N[C@H](C(=O)N[C@@H](Cc1ccccc1)C(=O)N[C@@H](CCCCN)C(=O)N[C@@H](CCCCN)C(=O)N[C@H](C(=O)N[C@@H](CCC(=O)O)C(=O)N[C@@H](CCCCN)C(=O)N[C@H](C(=O)NCC(=O)N[C@@H](CCC(N)=O)C(=O)N[C@@H](CC(N)=O)C(=O)N[C@H](C(=O)N[C@@H](CCCNC(=N)N)C(=O)N[C@@H](CC(=O)O)C(=O)NCC(=O)N[C@H](C(=O)N[C@H](C(=O)N[C@@H](CCCCN)C(=O)N[C@@H](C)C(=O)NCC(=O)N1CCC[C@H]1C(=O)N[C@@H](C)C(=O)N[C@H](C(=O)N[C@@H](C)C(=O)N[C@H](C(=O)N[C@H](C(=O)NCC(=O)N[C@@H](CCC(N)=O)C(=O)N[C@@H](C)C(=O)N[C@@H](C)C(=O)N[C@H](C(=O)N[C@H](C(N)=O)[C@@H](C)CC)[C@@H](C)O)C(C)C)C(C)C)C(C)C)C(C)C)[C@@H](C)CC)[C@@H](C)CC)C(C)C)[C@@H](C)CC)[C@@H](C)CC` the dead cells was 40% (MX1; trypan blue exclusion; 6 µM, 24 h).
The IC50 of `Cc1cc(Oc2nc(N3CC[C@@H](c4ccncc4)C3)ncc2F)[nH]n1` is reported as greater than 100 µM (A673; cell proliferation; muscle cancer).
`CC(C)C[C@H](NC(=O)[C@H](CC(=O)O)NC(=O)CNC(=O)[C@@H](N)CCCNC(=N)N)C(=O)N[C@@H](C)C(=O)N[C@H](C(=O)N[C@@H](CC(C)C)C(=O)N[C@@H](CCCNC(=N)N)C(=O)N[C@@H](CCC(N)=O)C(=O)N[C@@H](CC(C)C)C(=O)N[C@@H](C)C(=O)N[C@@H](CCC(N)=O)C(=O)N[C@@H](CCC(=O)O)C(=O)N[C@@H](CC(=O)O)C(=O)NCC(=O)N[C@H](C(=O)N[C@H](C(=O)NCC(=O)N[C@H](C(=O)N[C@@H](CCCNC(=N)N)C(=O)NCCOCCOCCOCCOCCOCCOCCOCCOCCOCCOCCOCCOCCC(=O)N[C@@H](CS)C(N)=O)C(C)C)C(C)C)C(C)C)[C@@H](C)O` has a selectivity ratio of 10 ± 5.8 (HCC461; phage binding; relative to: targeting over control phage).
Under “cell cycle distribution”, `Cc1cc(C(=O)Nc2nc3cccc(C)c3n2[C@H]2CCCCN(C(=O)/C=C/CN(C)C)C2)ccn1` is recorded as 8.2% and 7.2% and 5.75% (Trypanosoma brucei; propidium iodide flow cytometry, measured: SubG0 phase; bloodstream CLK1 over-expression uninduced; concentration not given).
`O=C(C[Se]C(=O)c1cc2ccccc2[nH]1)Nc1cccc(C(F)(F)F)c1` gave a CC50 of 5.93 µM (NCI60 melanoma subpanel; cytotoxicity, inhibitor; five-dose).
With `CC(C)CC(O)(CC(C)C)c1cn(C(=O)N2CCCC2)nn1` the protein level was 0.97 and 0.99 (mouse T-cells; SILAC proteomics, measured: Ndrg1; 1 nM, 6 h, single peptides, unit not given; relative to: DMSO).
With `CC(C)(C)C(=O)OCOP(=O)(OCOC(=O)C(C)(C)C)C1CCCN(O)C1=O` (stereo not drawn) the log TGI was greater than -4 log M (CAKI-1).
For `COc1ccccc1-c1n[nH]c2nc(N[C@H]3CC[C@H](NS(=O)(=O)CC(C)C)CC3)ncc12`, the relative abundance was 1.21 (bead binding, competition bead pull-down, measured: LINJ.09.0820; Leishmania donovani extract; 10 µM; relative to: vehicle).
With `O=C(O)c1ccc(-c2nc(-c3ccccc3Cl)c3sccn23)cc1` the sub-G0 cells was 1.46% and 1.14% (K562; flow cytometry; concentration not given; relative to: cells).

Some of these lines once more:
With `CCCCCCCC(=O)N[C@@H](CCCNC(=N)N)C(=O)N[C@@H](Cc1c[nH]c2ccccc12)C(=O)N[C@@H](CCCCN)C(=O)N[C@H](C(=O)N[C@@H](Cc1ccccc1)C(=O)N[C@@H](CCCCN)C(=O)N[C@@H](CCCCN)C(=O)N[C@H](C(=O)N[C@@H](CCC(=O)O)C(=O)N[C@@H](CCCCN)C(=O)N[C@H](C(=O)NCC(=O)N[C@@H](CCC(N)=O)C(=O)N[C@@H](CC(N)=O)C(=O)N[C@H](C(=O)N[C@@H](CCCNC(=N)N)C(=O)N[C@@H](CC(=O)O)C(=O)NCC(=O)N[C@H](C(=O)N[C@H](C(=O)N[C@@H](CCCCN)C(=O)N[C@@H](C)C(=O)NCC(=O)N1CCC[C@H]1C(=O)N[C@@H](C)C(=O)N[C@H](C(=O)N[C@@H](C)C(=O)N[C@H](C(=O)N[C@H](C(=O)NCC(=O)N[C@@H](CCC(N)=O)C(=O)N[C@@H](C)C(=O)N[C@@H](C)C(=O)N[C@H](C(=O)N[C@H](C(N)=O)[C@@H](C)CC)[C@@H](C)O)C(C)C)C(C)C)C(C)C)C(C)C)[C@@H](C)CC)[C@@H](C)CC)C(C)C)[C@@H](C)CC)[C@@H](C)CC` the dead cells was 40% (MX1; trypan blue exclusion; 6 µM, 24 h).
The IC50 of `Cc1cc(Oc2nc(N3CC[C@@H](c4ccncc4)C3)ncc2F)[nH]n1` is reported as greater than 100 µM (A673; cell proliferation; muscle cancer).
